Measurements of several laboratories.
Each line is one published result; not all experiments were run side by side. ± marks the error that the study gave. Values after ≈ are worked out from the molar mass of the structure shown.

Compound	organism	assay	system	conditions	how to read	endpoint	result
CC(C)[C@H]1NC(=O)[C@H](Cc2ccccc2)NC(=O)[C@@H](C(C)C)NC(=O)[C@@H](C)NC(=O)[C@H](C)NC(=O)[C@@H](Cc2c(-c3ccc(-c4ccc(-c5ccccc5)cc4)cc3)[nH]c3ccccc23)NC(=O)[C@@H](C)NC1=O	Mycobacterium marinum	–	–	–	–	MIC90	> 100 µM
[O-][N+]1=C(c2ccccc2)C2=NCCCN2c2ncccc21	Clostridioides difficile	microbial growth	–	–	–	MIC50	0.5 µg/mL (≈ 1.8 µM)
NCCCO.O=C(O)C(Cl)Cl	Solanum nigrum	herbicidal activity	–	15 mg/mL, 21 days, post-emergence greenhouse	–	inhibition	59%
CC[C@H](C)CCCCC(=O)N[C@@H](CCN)C(=O)N[C@H](C(=O)N[C@@H](CCN)C(=O)N[C@H]1CCNC(=O)[C@H]([C@@H](C)O)NC(=O)[C@H](CCN)NC(=O)[C@H](CCN)NC(=O)[C@H](CC(C)C)NC(=O)[C@@H](CC(C)C)NC(=O)[C@H](CCN)NC1=O)[C@@H](C)O	Escherichia coli	daily serial passaging	ATCC 8739	highest sub-MIC, 46 days	baseline: initial MIC	MIC fold change	4.42
C=CCN1C(=O)C(CC=C)(C(=O)OCC)Oc2cc(F)ccc21 (centres unmarked)	Rhizoctonia solani	microbial growth	–	200 µg/mL	–	inhibition	> 50%
CC(C)C[C@H](NC(=O)[C@@H](N)CO)C(=O)N[C@@H](Cc1c[nH]c2ccccc12)C(=O)N[C@@H](CCC(=O)O)C(=O)N[C@@H](CC(N)=O)C(=O)N[C@@H](Cc1ccccc1)C(=O)N[C@@H](CCCCN)C(=O)N[C@@H](CC(N)=O)C(=O)N[C@@H](C)C(=O)NCC(=O)N[C@@H](CCCCN)C(N)=O	Gram-positive bacteria	–	–	–	–	geometric mean MIC	256 µM
Cc1cc(C(=O)Nc2nc3cccc(C)c3n2[C@H]2CCCCN(C(=O)/C=C/CN(C)C)C2)ccn1	Trypanosoma brucei	propidium iodide flow cytometry	bloodstream form	concentration not given, 72 h	–	cells in G2 phase	28.3%
CC[C@H](C)[C@@H]1NC(=O)[C@H](CO)NC(=O)CC(CCCCN)NC(=O)[C@@H]2CSSC[C@@H](C(=O)N[C@@H](Cc3ccc(O)cc3)C(N)=O)NC(=O)[C@H](CCCCN)NC(=O)[C@@H]3CSSC[C@H](NC(=O)[C@H](CCCNC(=N)N)NC(=O)CC(CC(C)C)NC(=O)[C@H](CC(=O)O)NC(=O)[C@H](CC(=O)O)NC(=O)[C@H](CCC(=O)O)NC(=O)[C@H](CC(N)=O)NC(=O)[C@H](Cc4c[nH]c5ccccc45)NC(=O)[C@@H]4CCCN4C(=O)CNC(=O)[C@H](CC(N)=O)NC(=O)[C@@H](NC(=O)CNC(=O)[C@H](Cc4ccccc4)NC(=O)CN)CSSC[C@H](NC(=O)[C@H](Cc4ccc(O)cc4)NC(=O)CNC(=O)CNC(=O)[C@H](CCCCN)NC(=O)[C@H](Cc4ccc(O)cc4)NC(=O)CNC(=O)[C@H](CCCCN)NC1=O)C(=O)N[C@@H](C)C(=O)N[C@@H](CCCCN)C(=O)NCC(=O)NCC(=O)N[C@@H](Cc1ccccc1)C(=O)N[C@@H](C(C)C)C(=O)N3)C(=O)N[C@@H](Cc1c[nH]cn1)C(=O)NC(CC(N)=O)CC(=O)N[C@@H](Cc1c[nH]cn1)C(=O)N2 (some centres unmarked)	Streptococcus pneumoniae	–	BS-444	24 h, 37 °C, 99.9% killing	–	MBC	4 µM (≈ 17.8 µg/mL)
Cc1ccc(Nc2ncnc3ccc(-c4ccc(S(=O)(=O)N5CCOCC5)cc4)cc23)cc1	Trypanosoma cruzi	intracellular amastigote growth, β-galactosidase CPRG	3T3, Tulahuen, β-galactosidase-expressing	10 µM, 96 h	–	inhibition	59%
CC1COC2=C1C(=O)C(=O)c1c2ccc2c1C(OC(=O)CNC(=O)C(N)CCC(=O)O)CCC2(C)C (mixture of isomers)	Cutibacterium acnes	–	–	10 µmol/mL, 48 h, anaerobic, 10 µL on 6 mm disc	–	inhibition zone diameter	17.3 ± 0.8 mm
CN(C)c1nc(NCc2cc(Cl)c(F)cc2F)c(/N=N/c2ccc(Cl)cc2)c(N(C)C)n1	Ostrinia furnacalis	leaf dipping	–	200 mg/L, 96 h	–	mortality	50 ± 10%
